Assay results of several laboratories.
A part holds a random share of what one study measured. Substitutions count along the parent as printed.
Chain of UniProt Q9P286 (whole entry, looked up): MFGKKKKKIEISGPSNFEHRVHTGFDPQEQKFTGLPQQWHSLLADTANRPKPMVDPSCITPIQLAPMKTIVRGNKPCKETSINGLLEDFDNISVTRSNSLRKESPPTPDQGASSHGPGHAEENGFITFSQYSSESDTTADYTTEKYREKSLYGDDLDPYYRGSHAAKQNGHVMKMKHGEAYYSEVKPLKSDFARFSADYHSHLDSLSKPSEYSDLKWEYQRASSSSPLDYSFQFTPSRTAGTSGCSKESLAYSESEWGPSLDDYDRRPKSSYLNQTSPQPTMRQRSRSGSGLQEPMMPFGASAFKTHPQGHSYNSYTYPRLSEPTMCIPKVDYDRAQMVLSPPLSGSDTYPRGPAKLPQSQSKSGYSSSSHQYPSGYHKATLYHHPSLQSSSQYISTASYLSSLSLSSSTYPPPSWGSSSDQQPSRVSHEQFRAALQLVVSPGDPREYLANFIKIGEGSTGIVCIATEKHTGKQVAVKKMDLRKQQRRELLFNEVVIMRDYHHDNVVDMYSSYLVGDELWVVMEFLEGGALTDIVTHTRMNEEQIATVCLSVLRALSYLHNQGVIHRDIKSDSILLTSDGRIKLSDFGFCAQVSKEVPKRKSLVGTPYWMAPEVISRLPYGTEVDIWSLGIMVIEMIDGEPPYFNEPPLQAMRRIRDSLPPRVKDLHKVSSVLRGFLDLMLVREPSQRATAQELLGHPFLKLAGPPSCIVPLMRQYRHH

Sample 1 — method: RNA Bind-n-Seq; molecule type: RNA; matrix: in vitro; concentration: 20 nM; setting: 6-mer, flanks averaged, single round; together with: 150 mM KCl; baseline: input library; reading: higher = stronger binding
Target: TAR DNA-binding protein 43, full length, His tag (TARDBP, Homo sapiens, UniProt Q13148, residues 1-414)
Under “6-mer enrichment (R)”, `GUCCAA` is recorded as 0.699.
`UCGGAU` — result for “6-mer enrichment (R)”: 0.739.
Under “6-mer enrichment (R)”, `CAGCAA` is recorded as 0.71.
`CAUCAU` — result for “6-mer enrichment (R)”: 0.57.
For `UAGCUA`, “6-mer enrichment (R)” read 0.616.
For `CUGACA`, “6-mer enrichment (R)” read 0.671.
For `UAAGCA`, “6-mer enrichment (R)” read 0.657.
Under “6-mer enrichment (R)”, `AUCCUU` is recorded as 0.579.

Sample 2 — method: DHFR PCA, dose-response; matrix: yeast; setting: Hill fit, mean, not affinity; together with: (+)-ABA, dose series; reading: lower = more sensitive
Target: ABI1, truncated, D143A, DHFR fusion (Arabidopsis thaliana, UniProt P49597)
Parent: PYL1, truncated, DHFR fusion (Arabidopsis thaliana, UniProt Q8VZS8); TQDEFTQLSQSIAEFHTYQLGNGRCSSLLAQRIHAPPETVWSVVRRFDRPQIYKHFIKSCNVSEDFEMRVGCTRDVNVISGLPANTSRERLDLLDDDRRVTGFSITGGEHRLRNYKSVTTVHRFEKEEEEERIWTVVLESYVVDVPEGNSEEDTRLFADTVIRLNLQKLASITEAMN
For `E128N`, the ABA EC50 was 1.76 µM.
With `R155S` the ABA EC50 was 32.7 µM.
`T106N` has an ABA EC50 of 56.2 µM.
For `D144N`, the ABA EC50 was 21.9 µM.
For `D65Q`, the ABA EC50 was 4.02 µM.
`S9I` gave an ABA EC50 of 17.7 µM.
`K116C` has an ABA EC50 of 26 µM.
The ABA EC50 of `S11P` is reported as 5.56 µM.

Sample 3 — target: CEBPE, bZIP domain (human); method: DHFR protein complementation; matrix: yeast; baseline: wild-type JUN-FOS pair; reading: higher = stronger binding
Setting: single substitutions, most at no-binding floor
Parent: JUN, bZIP domain (human); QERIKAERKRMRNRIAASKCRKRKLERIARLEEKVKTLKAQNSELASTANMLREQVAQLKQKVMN; partner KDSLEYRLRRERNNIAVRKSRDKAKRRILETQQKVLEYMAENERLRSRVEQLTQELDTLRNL
With `R30S` the binding fitness was -0.926 natural log.
The binding fitness of `L52Q` is reported as -1.46 natural log.
With `K36P` the binding fitness was -1.53 natural log.
For `A49K`, the binding fitness was -1.45 natural log.
`T37V` has a binding fitness of -1.03 natural log.
The binding fitness of `L31R` is reported as -1.51 natural log.
`S43P` gave a binding fitness of -1.51 natural log.
The binding fitness of `S43A` is reported as -0.878 natural log.

Single results of other studies
The remaining binding of O=C(NS(=O)(=O)c1ccc(NCC2CCOCC2)c([N+](=O)[O-])c1)c1ccc(N2CCN(Cc3ccc(C(F)(F)F)cc3-c3ccc(Cl)cc3)CC2)cc1Oc1cnc2[nH]ccc2c1 is reported as 95% (Serine/threonine-protein kinase PAK 5 (PAK5, Homo sapiens, UniProt Q9P286); cell-free assay, competition with immobilised ligand; 1 µM).

Repeated from above (sample 2):
`K116C` has an ABA EC50 of 26 µM.
The ABA EC50 of `S11P` is reported as 5.56 µM.
